Experimental data collected from several papers.
Protocols differ between the studies behind these lines. Several values in a cell are separate wells, animals, samples, runs or records.

N=C(N)NCCC[C@H](NC(=O)[C@H](CCCNC(=N)N)NC(=O)[C@H](Cc1ccccc1)NC(=O)[C@H](CO)NC(=O)[C@H](Cc1ccccc1)NC(=O)[C@H](Cc1c[nH]c2ccccc12)NC(=O)[C@H](Cc1ccccc1)NC(=O)[C@H](CO)NC(=O)[C@H](Cc1ccccc1)NC(=O)[C@H](CCCNC(=N)N)NC(=O)[C@@H](N)CCCNC(=N)N)C(N)=O
MIC (Candida parapsilosis; CGMCC 2.399; 48 h, 37 °C): 2 µM

CC(=O)N[C@@H](CC(C)C)C(=O)N[C@H]1CSSC[C@@H](C(=O)N2CCC[C@H]2C(N)=O)NC(=O)[C@H]([C@@H](C)O)NC(=O)[C@H](C(C)C)NC(=O)[C@H]([C@@H](C)O)NC(=O)CNC(=O)[C@H](CC(C)C)NC(=O)[C@H](Cc2ccccc2)NC(=O)[C@H](Cc2ccc(O)cc2)NC(=O)[C@H](CC(C)C)NC(=O)[C@H](CCCCN)NC(=O)[C@H](Cc2ccccc2)NC(=O)[C@H](CCCNC(=N)N)NC(=O)[C@H](CCC(N)=O)NC(=O)[C@H](CC(C)C)NC(=O)[C@H](CCCCN)NC(=O)[C@@H]2CCCN2C(=O)[C@H](CCCCN)NC(=O)[C@H](C(C)C)NC(=O)[C@H](CC(N)=O)NC(=O)[C@H](Cc2ccc(O)cc2)NC(=O)[C@H]([C@@H](C)O)NC1=O
MIC (Vibrio alginolyticus; broth dilution; 24 h): > 40 µM

COc1ccc(C2=[N+]([O-])c3ccccc3N3CC(C)(C)CN=C23)cc1
MIC (Bacteroides spp. and Parabacteroides distasonis): 0.125 to 1 µg/mL

CC(C)CCCCCCCCC/C=C/C(=O)N[C@@H](CC(=O)O)C(=O)N[C@H]1CNC(=O)[C@@H]2CCCN2C(=O)[C@H](C(C)C)NC(=O)[C@@H](CN)NC(=O)CNC(=O)[C@H](CC(=O)O)NC(=O)CNC(=O)[C@H](CC(=O)O)NC(=O)[C@H](CC(=O)O)NC(=O)[C@H]2CCCCN2C1=O
MIC (Enterococcus; broth microdilution; VRE 155, Mueller-Hinton broth, Mg2+ 10 mg/L; 16 h, together with: Ca2+ 10 mM): 0.5 µg/mL

C[N+]1=C2C(c3ccc(Cl)cc3)=[N+]([O-])c3ccccc3N2CCC1
MIC (Bacteroides fragilis): 1 to 8 µg/mL

OB(O)c1cnn(-c2cc(Cl)ncn2)c1
MIC (Klebsiella aerogenes; bacterial growth; AmpC overproducer clinical isolate; without cefotaxime): 1020 µg/mL

CC(=O)N[C@@H](CC(C)C)C(=O)N[C@H]1CSSC[C@@H](C(=O)N2CCC[C@H]2C(N)=O)NC(=O)[C@H]([C@@H](C)O)NC(=O)[C@H](C(C)C)NC(=O)[C@H]([C@@H](C)O)NC(=O)CNC(=O)[C@H](CC(C)C)NC(=O)[C@H](Cc2ccccc2)NC(=O)[C@H](Cc2ccc(O)cc2)NC(=O)[C@H](CC(C)C)NC(=O)[C@H](CCCCN)NC(=O)[C@H](Cc2ccccc2)NC(=O)[C@H](CCCNC(=N)N)NC(=O)[C@H](CCC(N)=O)NC(=O)[C@H](CC(C)C)NC(=O)[C@H](CCCCN)NC(=O)[C@@H]2CCCN2C(=O)[C@H](CCCCN)NC(=O)[C@H](C(C)C)NC(=O)[C@H](CCCCN)NC(=O)[C@H](Cc2ccc(O)cc2)NC(=O)[C@H]([C@@H](C)O)NC1=O
MIC (Vibrio alginolyticus; broth dilution; 24 h): 10 to 20 µM

CCCCCCCC(=O)NCCCC[C@H](NC(=O)CCCCCCC)C(=O)N[C@@H](CCCCNC(=O)CCCCCCC)C(=O)NCC(=O)NCC(=O)NCC(=O)N[C@@H](CS)C(=O)N[C@@H](CCCNC(=N)N)C(=O)N[C@@H](CCCCN)C(=O)N1CCC[C@H]1C(N)=O
MIC (Candida parapsilosis; broth microdilution; CGMCC 2.399, RPMI-1640; 48 h, 30 °C): > 128 µM

O=C(c1ccccc1O)c1[nH]c(Cl)c(Cl)c1-n1c(C(=O)c2ccccc2O)cc(Cl)c1Cl
MIC (Klebsiella aerogenes; microbial growth; ATCC35029): > 64 µM

[O-][N+]1=C(Cc2ccccc2)C2=NCCCN2c2ccccc21
MIC (Bacteroides spp. and Parabacteroides distasonis): 1 to 4 µg/mL

CC(=O)N[C@@H](CC(C)C)C(=O)N[C@H]1CSSC[C@@H](C(=O)N2CCC[C@H]2C(N)=O)NC(=O)[C@H]([C@@H](C)O)NC(=O)[C@H](C(C)C)NC(=O)[C@H]([C@@H](C)O)NC(=O)CNC(=O)[C@H](CCCCN)NC(=O)[C@H](Cc2ccccc2)NC(=O)[C@H](Cc2ccc(O)cc2)NC(=O)[C@H](CCCCN)NC(=O)[C@H](CCC(=O)O)NC(=O)[C@H](Cc2ccccc2)NC(=O)[C@H](CCCNC(=N)N)NC(=O)[C@H](CCCCN)NC(=O)[C@H](CC(C)C)NC(=O)[C@H](CC(=O)O)NC(=O)[C@@H]2CCCN2C(=O)[C@H](CCCCN)NC(=O)[C@H](C(C)C)NC(=O)[C@H](CCCCN)NC(=O)[C@H](CCCCN)NC(=O)[C@H]([C@@H](C)O)NC1=O
MIC (Shigella flexneri; broth dilution; CGMCC strain; 24 h): > 40 µM

CCCCCC(=O)NCCCC[C@H](NC(=O)CCCCC)C(=O)N[C@@H](CCCCNC(=O)CCCCC)C(=O)NCC(=O)NCC(=O)NCC(=O)N[C@@H](CS)C(=O)N[C@@H](CCCNC(=N)N)C(=O)N[C@@H](CCCCN)C(=O)N1CCC[C@H]1C(=O)N[C@@H](CS)C(=O)N[C@@H](CCCNC(=N)N)C(=O)N[C@@H](CCCCN)C(=O)N1CCC[C@H]1C(N)=O
MIC (Candida parapsilosis; broth microdilution; CGMCC 2.399, RPMI-1640; 48 h, 30 °C): 8 µM

CC(C)CCCCCCCCC/C=C/C(=O)N[C@@H](CC(N)=O)C(=O)N[C@H]1CNC(=O)[C@@H]2CCCN2C(=O)[C@H](C(C)C)NC(=O)[C@@H](CN)NC(=O)CNC(=O)[C@H](CC(=O)O)NC(=O)CNC(=O)[C@H](CC(=O)O)NC(=O)[C@H](CC(=O)O)NC(=O)[C@H]2CCCCN2C1=O
MIC (Enterococcus; broth microdilution; VRE 155, Mueller-Hinton broth, Mg2+ 10 mg/L; 16 h, together with: Ca2+ 10 mM): 0.5 µg/mL

CC(=O)N[C@@H](CC(C)C)C(=O)N[C@H]1CSSC[C@@H](C(=O)N2CCC[C@H]2C(N)=O)NC(=O)[C@H](CCCCN)NC(=O)[C@H](C(C)C)NC(=O)[C@H](CCCCN)NC(=O)CNC(=O)[C@H](CC(C)C)NC(=O)[C@H](Cc2ccccc2)NC(=O)[C@H](CCCCN)NC(=O)[C@H](CC(C)C)NC(=O)[C@H](CCC(=O)O)NC(=O)[C@H](Cc2ccccc2)NC(=O)[C@H](CCCNC(=N)N)NC(=O)[C@H](CCCCN)NC(=O)[C@H](CC(C)C)NC(=O)[C@H](CC(=O)O)NC(=O)[C@@H]2CCCN2C(=O)[C@H](CCCCN)NC(=O)[C@H](C(C)C)NC(=O)[C@H](CCCCN)NC(=O)[C@H](CCCCN)NC(=O)[C@H](CCCCN)NC1=O
MIC (Corynebacterium glutamicum; broth dilution; CGMCC strain; 24 h): < 1.25 µM

CCCCCCCCCCCCCC(=O)N[C@H]1C(=O)N[C@@H](CN)C(=O)N[C@@H](CO)C(=O)N[C@@H](Cc2ccc(O)cc2)C(=O)O[C@H]1C
MIC (Staphylococcus aureus; SH1000; together with: N-acetylsphingosine, molar ratio 1): 1 µg/mL and 2 µg/mL

COc1ccc(C2=[N+]([O-])c3ccccc3N3CCN=C23)cc1
MIC (Bacteroides spp. and Parabacteroides distasonis): 0.06 to 0.125 µg/mL

CC[C@H](C)[C@H](NC(=O)[C@H](CCCCN)NC(=O)[C@H](CCCCN)NC(=O)[C@H](Cc1ccccc1)NC(=O)[C@H](Cc1ccccc1)NC(=O)[C@H](CCCCN)NC(=O)[C@H](CCCCN)NC(=O)[C@H](Cc1ccccc1)NC(=O)[C@H](CCCNC(=N)N)NC(=O)[C@@H](N)CCCCN)C(=O)N[C@@H](CCCCN)C(=O)N[C@@H](CCCCN)C(=O)N[C@@H](CO)C(=O)N[C@H](C(=O)N[C@@H](CCCCN)C(=O)N[C@@H](CCCCN)C(=O)N[C@@H](CCCNC(=N)N)C(=O)N[C@H](C(=O)N[C@@H](CCCCN)C(=O)N[C@@H](CCCCN)C(=O)N[C@@H](CC(C)C)C(=O)N[C@@H](Cc1ccccc1)C(=O)N[C@@H](CCCCN)C(=O)N[C@@H](CCCCN)C(=O)N1CCC[C@H]1C(=O)N[C@@H](CCCNC(=N)N)C(=O)N[C@H](C(=O)N[C@H](C(=O)N1CCC[C@H]1C(=O)N[C@H](C(=O)N[C@@H](CO)C(=O)N[C@H](C(=O)N1CCC[C@H]1C(=O)N[C@@H](Cc1ccccc1)C(=O)O)[C@@H](C)CC)[C@@H](C)CC)[C@@H](C)CC)C(C)C)C(C)C)C(C)C
MIC (Pseudomonas aeruginosa; broth microdilution; P1 clinical isolate; 20 h): 4 µg/mL

O=[N+]([O-])c1ccc(C2=[N+]([O-])c3ccccc3N3CCCN=C23)cc1
MIC (Bacteroides fragilis): 0.06 to 0.25 µg/mL

CSCC[C@H](NC=O)C(=O)N[C@@H](CCCNC(=N)N)C(=O)N[C@H](C(=O)NCC(=O)N[C@@H](CC(N)=O)C(=O)N[C@@H](C)C(=O)N[C@@H](CC(N)=O)C(=O)NCC(=O)N1CCN(c2cc3c(cc2F)c(=O)c(C(=O)O)cn3C2CC2)CC1)[C@@H](C)O
MIC (Shigella flexneri; broth dilution; CGMCC 1.187): 50 µM

CC(=O)N[C@@H](CC(C)C)C(=O)N[C@H]1CSSC[C@@H](C(=O)N2CCC[C@H]2C(N)=O)NC(=O)[C@H]([C@@H](C)O)NC(=O)[C@H](C(C)C)NC(=O)[C@H]([C@@H](C)O)NC(=O)[C@H](CCCCN)NC(=O)[C@H](CC(C)C)NC(=O)[C@H](Cc2ccccc2)NC(=O)[C@H](Cc2ccc(O)cc2)NC(=O)[C@H](CC(C)C)NC(=O)[C@H](CCCCN)NC(=O)[C@H](Cc2ccccc2)NC(=O)[C@H](CCCNC(=N)N)NC(=O)[C@H](CCC(N)=O)NC(=O)[C@H](CC(C)C)NC(=O)[C@H](CCCCN)NC(=O)[C@@H]2CCCN2C(=O)[C@H](CCCCN)NC(=O)[C@H](C(C)C)NC(=O)[C@H](CC(N)=O)NC(=O)[C@H](Cc2ccc(O)cc2)NC(=O)[C@H]([C@@H](C)O)NC1=O
MIC (Corynebacterium glutamicum; broth dilution; CGMCC strain; 24 h): 1.25 to 2.5 µM

C#CCOc1ccc(CN[C@@]2(C)C[C@H](O[C@H]3[C@H](Oc4c5cc6cc4Oc4ccc(cc4Cl)[C@@H](O)[C@@H](NC(=O)[C@@H](CC(C)C)NC)C(=O)N[C@@H](CC(N)=O)C(=O)N[C@H]6C(=O)N[C@H]4C(=O)N[C@H](C(=O)N[C@H](C(=O)NCC(N)=O)c6cc(O)cc(O)c6-c6cc4ccc6O)[C@H](O)c4ccc(c(Cl)c4)O5)O[C@H](CO)[C@@H](O)[C@@H]3O)O[C@@H](C)[C@H]2O)cc1OC
MIC (Enterococcus faecalis; broth microdilution; vancomycin-resistant): 38 µM
